Measured values collected from several papers.
A part holds a random share of what one study measured.
Sequence of UniProt P35626 (whole entry, looked up): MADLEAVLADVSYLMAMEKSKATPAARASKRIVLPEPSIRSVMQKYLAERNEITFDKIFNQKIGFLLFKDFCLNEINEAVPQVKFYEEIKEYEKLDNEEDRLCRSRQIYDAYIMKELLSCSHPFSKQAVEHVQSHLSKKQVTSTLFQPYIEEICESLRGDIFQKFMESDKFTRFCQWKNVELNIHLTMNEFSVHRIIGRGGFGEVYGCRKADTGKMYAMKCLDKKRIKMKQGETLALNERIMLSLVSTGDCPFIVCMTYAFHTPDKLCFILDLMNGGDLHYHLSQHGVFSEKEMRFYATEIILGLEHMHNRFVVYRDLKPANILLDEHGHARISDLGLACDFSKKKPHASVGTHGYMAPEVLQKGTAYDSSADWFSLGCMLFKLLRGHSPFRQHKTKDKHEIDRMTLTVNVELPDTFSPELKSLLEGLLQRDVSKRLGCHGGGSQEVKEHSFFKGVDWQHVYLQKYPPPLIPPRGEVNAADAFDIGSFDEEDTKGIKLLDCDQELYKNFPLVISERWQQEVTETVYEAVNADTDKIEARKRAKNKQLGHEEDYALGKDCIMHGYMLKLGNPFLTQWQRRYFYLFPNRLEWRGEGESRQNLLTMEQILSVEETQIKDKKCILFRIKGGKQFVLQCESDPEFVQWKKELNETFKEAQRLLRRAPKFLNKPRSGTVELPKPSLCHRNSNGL

Set 1
Target: Protein C-ets-1 (ETS1, Homo sapiens, UniProt P14921, residues 1-441, Y397A, full length assumed)
Technique: protein-binding microarray
Form: double-stranded DNA, one strand shown
Sample: in vitro
Concentration: not given
Setting: k-mer, scored over probes, only values ≥0.25
Reading: higher = stronger binding
Residues (chain): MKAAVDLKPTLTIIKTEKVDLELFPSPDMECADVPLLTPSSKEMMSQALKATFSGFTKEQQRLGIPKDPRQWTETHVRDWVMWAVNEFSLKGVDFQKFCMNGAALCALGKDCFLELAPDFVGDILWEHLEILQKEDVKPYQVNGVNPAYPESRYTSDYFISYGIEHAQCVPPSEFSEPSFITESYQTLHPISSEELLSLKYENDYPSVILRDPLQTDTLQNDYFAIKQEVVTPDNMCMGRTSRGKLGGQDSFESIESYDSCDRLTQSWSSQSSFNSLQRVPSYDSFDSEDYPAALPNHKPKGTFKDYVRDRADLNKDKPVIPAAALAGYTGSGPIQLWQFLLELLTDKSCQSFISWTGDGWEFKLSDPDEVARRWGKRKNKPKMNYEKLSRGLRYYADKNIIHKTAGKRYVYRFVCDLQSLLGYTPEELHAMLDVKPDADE
| Sequence | E-score |
| --- | --- |
| CATTCGCG | 0.254 |
| GACCCGCC | 0.253 |
| CAATTGAC | 0.31 |
| CGTGCACG | 0.298 |
| TAATGACA | 0.371 |
| CCCGCCGC | 0.302 |
| AACAGCAA | 0.279 |
| ATTGCCAG | 0.373 |

Set 2
Target: Fragile X messenger ribonucleoprotein 1, C-terminal low-complexity region (Fmr1, Mus musculus, UniProt P35922)
Technique: RNA Bind-n-Seq
Form: RNA
Sample: in vitro
Concentration: 200 nM
Setting: whole 134-nt RNA, ends assumed
With: 150 mM KCl
Reference: input library
Reading: higher = stronger binding
Shared flanks, not repeated: GGGAGUUCUACAGUCCGACGAUC … UGGAAUUCUCGGGUGUCAAGG
| Sequence | log2 enrichment |
| --- | --- |
| CCUCAAGUCCUGUGCUACACAUCGUAUGUACCGAAUCGGGAGGGAGGAGGGGAAAGUAUUAUGUUACGCCGUUCGGAUCUGCACUUCCAG | 1.39 |
| UGGCCCUGGUGGCAUGCGGGGAGGAAGAGGUGGCCUCAUGGAUCGUGGUGGUCCCGGUGGAAUGUUCAGAGGUGGCCUUGGUGGAGACAG | -0.0474 |
| UCAAGUCCUGUGCUACACAUCGUAUGUACCGAAUCGGGAAAGGGUGGGAAAGGGAAAGUAUUAUGUUACGCCGUUCGGAUCUGCACUUCC | 1.04 |
| ACUGGACCAGAUUGUUGAAAAAGGAAGACCAGCUCCUGGCUUCCAUCAUGGCGAUGGACCGGGAAAUGCAGUUCAAGAAAUCAUGAUUCC | -0.886 |
| UCAAGUCCUGUGCUACACAUCGUAUGUACCGAAUCGGUUUGGUUUGGUUUUUGGAAAGUAUUAUGUUACGCCGUUCGGAUCUGCACUUCC | -0.454 |
| UCCUGUGCUACACAUCGUAUGUACCGAAUCGGGGUUUUUGGGGUUUUUGGGUUUUUGGGAAAGUAUUAUGUUACGCCGUUCGGAUCUGCA | 0.527 |
| GCAGGAAGUAAAAACAAAUGGAAAUGCUUCGGAUAGUGGCAGGGGUGGGGGUUGCUAAGGAAAGGGUGGGAUGGGAGUGGGUAAAGAUUU | 0.243 |
| UCAAGUCCUGUGCUACACAUCGUAUGUACCGAAUCGGUUUUUUUGGUUUGGAGGAAAGUAUUAUGUUACGCCGUUCGGAUCUGCACUUCC | -0.655 |

Set 3
Target: Histone acetyltransferase KAT6A, winged helix 1, GST fusion (KAT6A, Homo sapiens, UniProt Q92794, residues 1-85)
Technique: protein binding microarray
Form: double-stranded DNA, one strand shown
Sample: in vitro
Concentration: not given
Setting: 8-mer, flanks averaged, mean of 2 arrays, mostly near background
Reference: not given
Reading: higher = stronger binding
Construct (chain): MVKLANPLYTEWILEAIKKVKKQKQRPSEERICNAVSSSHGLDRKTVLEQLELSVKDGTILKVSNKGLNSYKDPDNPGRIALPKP
| Sequence | E-score |
| --- | --- |
| CATGCGCA | 0.232 |
| AACACCTC | -0.102 |
| CCGCCCAC | 0.193 |
| GAGGCTTA | -0.0397 |
| CTTCATCA | -0.166 |
| ACTACCGG | 0.223 |
| CTTTGATC | -0.199 |
| ATGGCAGC | -0.0237 |

Mixed results
| SMILES | target | effect on | technique | concentration | endpoint | value |
| --- | --- | --- | --- | --- | --- | --- |
| Cn1nc(C(F)(F)F)cc1-c1cnc(N2CCc3cc(S(=O)(=O)Nc4c(F)cc(Cl)cc4F)cc(N4CCCC4=O)c32)nc1 | G protein-coupled receptor kinase 3 (GRK3, Homo sapiens, UniProt P35626) | cell-free assay | competition with immobilised ligand | 1 µM | remaining binding | 82% |

For quick reference, copied from above (set 3):
| Sequence | E-score |
| --- | --- |
| AACACCTC | -0.102 |
| CCGCCCAC | 0.193 |
